Measured values of several laboratories.
Every numbered part comes from another study and shows a few of its results, in no order. Positions count from the first letter of the parent shown.

Set 1
Target: RING finger protein unkempt homolog, zinc fingers 1-6, GST-SBP tag (UNK, Homo sapiens, UniProt Q9C0B0, residues 30-357)
UniProt Q9C0B0, sequence (30-357, looked up): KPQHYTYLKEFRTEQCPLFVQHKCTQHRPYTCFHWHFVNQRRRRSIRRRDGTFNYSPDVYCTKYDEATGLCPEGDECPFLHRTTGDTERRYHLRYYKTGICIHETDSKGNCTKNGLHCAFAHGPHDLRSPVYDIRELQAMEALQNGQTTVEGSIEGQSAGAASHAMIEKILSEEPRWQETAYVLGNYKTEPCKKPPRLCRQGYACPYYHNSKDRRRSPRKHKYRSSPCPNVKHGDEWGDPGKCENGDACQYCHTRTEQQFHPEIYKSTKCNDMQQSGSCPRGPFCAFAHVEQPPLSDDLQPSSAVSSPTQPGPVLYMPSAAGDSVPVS
Method: RNA Bind-n-Seq
Molecule type: RNA
Matrix: in vitro
Tested at: not given
Notes: RNA with constant flanks, human and mouse sites, ends assumed
Reference: input RNA pool
Direction: higher = stronger binding
Quantity: bound/input enrichment
All sequences stand within: GGGAGUUCUACAGUCCGACGAUC … CAACAGAGGAUUGAGCAUCA
Sequence = GUAAUCCUGGUUGCUUGGGAAGUUGAGAUAGGAUAACAAGUUCAAGGCCAGCCUGCACAACUUAGAACCUGUCUGGAAAUGAGAAAUAACUACCCUCACGAGGACUAUUAACAUAGGAUU; value = 0.298 ratio
Sequence = UUUCUUCCACCUACCACCGUGGCUGGUGCCACUCUUUACUCAGUGGCAAUGUACGGUGGAUUAGUUCUUUUCAGCAUGUUCCUUCUGUAUGAUACCCAGAAAGUAAUCAAGCGUGCAGAA; value = 0.286 ratio
Sequence = UUAAUAGGACCAGGGACCAUGUAACUGAGGUGAGGGUUGUAGUAGAUGCUUCCAGUGUCAGUAUGCCUGUUAAUUUUAAGAGCUUCCCUUUCUUGCAGAGAACAAGUCUGCCCAGAUUCC; value = 0.465 ratio
Sequence = GCCACUCCAUUUGUUCCCAAGCCUAGUACCAAACCUGCCCCUGGGGGCACAGCACCCUUGCCUCCUUGGAAGACCCCUUCUAGCUCCCAGCCACCACCUCAGCCGCAGGCCAAGCCUCAG; value = 0.787 ratio
Sequence = AUAAUGAAAACAGUGAAGGGUUUUUUUUAUGUUUCAUUACUUCUUGGCAUUCUGAAGGAGAUAGCUGGAAACACCAUAAUUCACAAAACAGAUUCAGAUGAAAAAGUCACAGUGCUGUUU; value = 0.164 ratio
Sequence = UUUUAAAAACCAAAAAGCAUAAACAUUCUGGUCCUUCAGCAAUGCUUUCUCUGAAGAAAUACUUAACGGAAGGACUUCUCCAGUUCACCAUUCUGCUGAGUUUGAUUGGGGUACGGGUGG; value = 0.252 ratio
Sequence = AGGCCACAAGAUUUUAAAUAUGGGCCUUGGCUUCCUGCACUAGAGAUUACGUCCAUCUAGAUGGGUGCUGCAGGUUUUUGUUUUCUGUUUUUUUGGUUUUUUUUUUUUUUGCAGUGAUAG; value = 2.84 ratio
Sequence = UCCCAUAUGAAAAAAGGAGAGAACACUGGCAUCUGUUGAAAUUUGGAAGUUCUGAAAUUAUAGUAUUUUUAAAAAUUGCACUGAAGUGUAUACACAUAAAGCAGGUCUUUUAUCCAGUGA; value = 4.43 ratio
Sequence = GAGGUUGUUAAGGACAAAGCAGGACCUCAUAAGGAAAUCUACCCCUAUGUCAUCCAGGAACUUAGACCAACUUUAAAUGAACUGGGAAUCUCCACUCCGGAGGAACUGGGCCUUGACAAA; value = 0.415 ratio
Sequence = AGCUUGAUGUACAGAAAACUGAAAAUAUGUAAUGCUCAGUGAUCUUAUUAUUUAGGAGUGUUUUGACUGAUAUAUUUAAAGAUAGAUUAUAUUCAUGCUGUCUUCUGUUGACUUUGAGAA; value = 30.5 ratio
Sequence = UCCGAGGGCAGCGGUGGGAGCACACCCGGCUGGCACACGAGGGAGGAGCAGCCGCCGUCGGUAGCUGAGGGCUACGCCUCGCAGGACGUGUUCAGCGCCACCGAGACCAGCCUGUGGUAC; value = 0.178 ratio

Set 2
Target: CCNE2, cyclin fold, Cln2 fusion (human)
Method: yeast growth competition, sequencing
Matrix: yeast
Notes: strong parent motif
Reference: not given
Direction: higher = stronger binding
Quantity: normalised enrichment score
Starting sequence: RBL1 docking peptide (human); GSAKRRLFGEDPP
Change = GSAKRRLFGEDDP [P12D]; value = 4.3
Change = GSAKRRLFGEDLP [P12L]; value = 3.8
Change = GQAKRRLFGEDPP [S2Q]; value = 3.7
Change = GSAKRRLFGSDPP [E10S]; value = 4.19
Change = GSAKRRLFGEQPP [D11Q]; value = 4.3
Change = GSAKRRLFGEDKP [P12K]; value = 4.39
Change = GSANRRLFGEDPP [K4N]; value = 1.04
Change = GSAKRRLFGEDCP [P12C]; value = 4.05
Change = GSAKRRLFGEHPP [D11H]; value = 3.1
Change = GYAKRRLFGEDPP [S2Y]; value = 3.07
Change = GDAKRRLFGEDPP [S2D]; value = 3.27
Change = SSAKRRLFGEDPP [G1S]; value = 4.4
Change = GSAKRRLFGVDPP [E10V]; value = 2.83
Change = GSAKRRRFGEDPP [L7R]; value = 0.911
Change = GSAKRRLFGPDPP [E10P]; value = 4.26
Change = GSADRRLFGEDPP [K4D]; value = -0.0642
Change = GSAKRRLFDEDPP [G9D]; value = 4.66
Change = GSAKKRLFGEDPP [R5K]; value = 1.28
Change = GSAKRRLFGEYPP [D11Y]; value = 4.89
Change = GSAMRRLFGEDPP [K4M]; value = 1.3
Change = GSAKRRLFGEDMP [P12M]; value = 4.06
Change = GPAKRRLFGEDPP [S2P]; value = 3.45
Change = GSAKRRLFGRDPP [E10R]; value = 2.5
Change = GSAKRRWFGEDPP [L7W]; value = 0.921
Change = GSAKRKLFGEDPP [R6K]; value = 4.02

Set 3
Target: Interferon regulatory factor 5, full length, phosphomimetic (IRF5, Homo sapiens, UniProt Q13568-2, residues 1-514, S451D/S453D/S456D/S462D)
Method: protein-binding microarray
Molecule type: double-stranded DNA, one strand shown
Matrix: in vitro
Tested at: 940 nM top
Notes: 60-bp whole probe
Added: salmon DNA 0.4 mg/ml
Reference: random background probes
Direction: higher = stronger binding
Quantity: fitted relative affinity
All sequences stand within: GCCTAGCAC … GTCTTGATTCGCTTGACGCTGCTG
Sequence = GACGGACTGCGACTGCTGACGTGCTAG; value = -0.744 z-score
Sequence = TCATGCTTCGAGATCTCACTGTGCTAG; value = 0.108 z-score
Sequence = TTAGGACTGGATCTCGGTTAGTGCTAG; value = 0.216 z-score
Sequence = TGGAGAGCATATTCTGTGACGTGCTAG; value = -0.632 z-score
Sequence = TTTACTTTCTGAATGCTCCCGTGCTAG; value = 2.68 z-score
Sequence = TTAGGTCTCCTTCTCCTTTGGTGCTAG; value = 0.694 z-score
Sequence = CTAGGACTGCTTTTCCTTTAGTGCTAG; value = -0.00223 z-score
Sequence = GACGGTATCGAACTGGGGACGTGCTAG; value = 2.06 z-score
Sequence = GACGGGCTCGGACTGGGGACGTGCTAG; value = -0.701 z-score
Sequence = TCATCTATCTTAAATAGGACTGTGCTA; value = -0.133 z-score
Sequence = TCATGTGCCCATCTCTGACTGTGCTAG; value = -0.0076 z-score
Sequence = TTAGGTTTCGGGAGTGGGTTAGTGCTA; value = 7.99 z-score
Sequence = TTAGATTTCAGTTCTGATTAGTGCTAG; value = 0.424 z-score
Sequence = GACGGCCTGGACACTGGGGACGTGCTA; value = -0.571 z-score
Sequence = GACGATATCAGACTGGACACGTGCTAG; value = -0.305 z-score
Sequence = ATATGTAAGATATCCATATGGTGCTAG; value = -0.446 z-score
Sequence = ATATACCTGAATATCTTCAGGTGCTAG; value = -0.156 z-score
Sequence = GACGGTATCCTTATCCGGACGTGCTAG; value = 0.763 z-score
Sequence = GACGGACTGCTGTTCCTGACGTGCTAG; value = -0.58 z-score
Sequence = GACGGACTGGGTTTCCGGACGTGCTAG; value = -0.137 z-score
Sequence = GACGGTTCCGGTTTCTGGACGTGCTAG; value = 3.44 z-score
Sequence = GAGGGTATCGGACTGGGGACGTGCTAG; value = 1.19 z-score
Sequence = TCAATTTTTACATTATTACTGTGCTAG; value = 0.652 z-score
Sequence = CCATCTCTCAAAAGTCACCCTGTGCTA; value = 0.49 z-score
Sequence = GACGATTTCGGGTTTCTAGACGTGCTA; value = 1.21 z-score

Set 4
Target: UBE2N UBC core domain (UniProt P61088)
Method: yeast two-hybrid
Matrix: yeast
Notes: mostly zero background
Reference: not given
Direction: higher = stronger interaction
Quantity: lacZ reporter activity
B1: UBOX5 RING domain (UniProt O94941); chain EQPGSILGPECASCKRVFSPYFKKEPVYQLPCGHLLCRPCLGEKQRSLPMTCTACQRPVASQDVLR
B2: SYTL4 RING domain (UniProt Q96C24); chain RGSQHYSDRTCARCQESLGRLSPKTNTCRGCNHLVCRDCRIQESNGTWRCKVCAKEIELKKAT
B3: ZMIZ2 RING domain (UniProt Q8NF64); chain GTIPGTPGPNGEDGVEQTAIKVSLKCPITFRRIQLPARGHDCRHIQCFDLESYLQLNCERGTWRCPVCNKTALLEGLEVDQYMLGILIYIQNSDYEEITIDPTCSWK
B4: RNF133 RING domain (UniProt Q8WVZ7); chain DEEINPNGDSCVICFERYKPNDIVRILTCKHFFHKNCIDPWILPHGTCPICKCDILKVLGIQ
B5: DZIP3 RING domain (UniProt Q86Y13); chain PDEEEEEEEPCVICHENLSPENLSVLPCAHKFHAQCIRPWLMQQGTCPTCRLHVLLPEEFP
B6: DTX2 RING domain (UniProt Q86UW9); chain EELKVPPDEDCIICMEKLSTASGYSDVTDSKAIGSLAVGHLTKCSHAFHLLCLLAMYCNGNKDGSLQCPSCKTIYGEKTGTQ
B7: RBCK1 RING domain (UniProt Q9BYM8); chain SLVLNTEPAECPVCYSVLAPGEAVVLRECLHTFCRECLQGTIRNSQEAEVSCPFIDNTYSCSGKLLEREIK
B8: RNF121 RING domain (UniProt Q9H920); chain MPTKHLSDSVCAVCGQQIFVDVSEEGIIENTYRLSCNHVFHEFCIRGWCIVGKKQTCPYCKEKVDLKRMFS
Residues (chain): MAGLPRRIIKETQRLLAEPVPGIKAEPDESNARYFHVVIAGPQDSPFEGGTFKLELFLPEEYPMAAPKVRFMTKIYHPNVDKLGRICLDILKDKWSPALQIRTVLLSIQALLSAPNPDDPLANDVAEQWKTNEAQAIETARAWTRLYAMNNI
Molecule = B1 (UBOX5 RING domain); value = 0
Molecule = B2 (SYTL4 RING domain); value = 0
Molecule = GSDDEEIPFKCFICRQSFQNPVVTKCRHYFCESCALQHFRTTPRCYVCDQQTNGVFNPA (RNF113A RING domain (UniProt O15541)); value = 0
Molecule = PEDRESLKSACVVCLSSFKSCVFLECGHVCSCTECYRALPEPKKCPICRQAITRVIPLY (MUL1 RING domain (UniProt Q969V5)); value = 14200
Molecule = B3 (ZMIZ2 RING domain); value = 0
Molecule = B4 (RNF133 RING domain); value = 2500
Molecule = AVPSGLEENLCKICMDSPIDCVLLECGHMVTCTKCGKRMNECPICRQYVIRAVHVF (RFFL RING domain (UniProt Q8WZ73)); value = 0
Molecule = B5 (DZIP3 RING domain); value = 0
Molecule = KETIKKTTKPCPRCHVPVEKNGGCMHMKCPQPQCRLEWCWNCGCEWNRVCMG (PRKN RING domain (UniProt O60260)); value = 0
Molecule = B6 (DTX2 RING domain); value = 0
Molecule = B7 (RBCK1 RING domain); value = 0
Molecule = B8 (RNF121 RING domain); value = 0

Repeated from above (set 3):
Sequence = GACGGGCTCGGACTGGGGACGTGCTAG; value = -0.701 z-score
Sequence = GACGGTATCCTTATCCGGACGTGCTAG; value = 0.763 z-score
Sequence = ATATGTAAGATATCCATATGGTGCTAG; value = -0.446 z-score
Sequence = GACGATATCAGACTGGACACGTGCTAG; value = -0.305 z-score
Sequence = TTAGGTTTCGGGAGTGGGTTAGTGCTA; value = 7.99 z-score
